Measured values collected from several papers.
Compare with care: the assays were run in different laboratories. ± marks the error that the study gave.
ipgm-1: ipgm-1 (Brugia malayi, UniProt Q4VWF8)
Chain of UniProt Q4VWF8 (whole entry, looked up): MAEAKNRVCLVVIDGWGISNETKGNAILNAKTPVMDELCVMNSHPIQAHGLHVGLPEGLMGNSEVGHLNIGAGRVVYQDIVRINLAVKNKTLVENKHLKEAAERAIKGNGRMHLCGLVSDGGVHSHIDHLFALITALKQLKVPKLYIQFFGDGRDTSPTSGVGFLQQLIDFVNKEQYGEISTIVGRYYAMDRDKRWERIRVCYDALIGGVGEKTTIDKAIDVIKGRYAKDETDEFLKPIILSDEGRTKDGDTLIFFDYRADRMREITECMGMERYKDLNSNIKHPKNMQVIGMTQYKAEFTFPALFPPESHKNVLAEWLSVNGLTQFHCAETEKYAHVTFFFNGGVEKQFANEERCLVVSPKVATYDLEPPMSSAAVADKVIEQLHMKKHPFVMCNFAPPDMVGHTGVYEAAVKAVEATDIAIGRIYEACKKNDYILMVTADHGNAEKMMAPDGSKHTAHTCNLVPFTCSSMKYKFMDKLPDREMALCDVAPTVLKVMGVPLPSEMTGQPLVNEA
Chain of UniProt P21554 (whole entry, looked up): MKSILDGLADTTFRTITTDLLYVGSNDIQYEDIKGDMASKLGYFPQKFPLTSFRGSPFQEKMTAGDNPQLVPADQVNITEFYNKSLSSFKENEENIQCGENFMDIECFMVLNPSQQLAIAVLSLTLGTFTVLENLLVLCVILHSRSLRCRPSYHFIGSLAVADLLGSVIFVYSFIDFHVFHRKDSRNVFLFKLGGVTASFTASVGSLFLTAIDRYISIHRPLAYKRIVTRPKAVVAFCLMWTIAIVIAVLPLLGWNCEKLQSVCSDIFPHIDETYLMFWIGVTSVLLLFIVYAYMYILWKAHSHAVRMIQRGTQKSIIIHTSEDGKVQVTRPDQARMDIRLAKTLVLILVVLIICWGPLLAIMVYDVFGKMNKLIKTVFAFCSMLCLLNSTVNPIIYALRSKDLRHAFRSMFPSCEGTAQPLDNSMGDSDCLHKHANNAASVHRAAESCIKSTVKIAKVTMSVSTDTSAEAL
Chain of UniProt P33533 (whole entry, looked up): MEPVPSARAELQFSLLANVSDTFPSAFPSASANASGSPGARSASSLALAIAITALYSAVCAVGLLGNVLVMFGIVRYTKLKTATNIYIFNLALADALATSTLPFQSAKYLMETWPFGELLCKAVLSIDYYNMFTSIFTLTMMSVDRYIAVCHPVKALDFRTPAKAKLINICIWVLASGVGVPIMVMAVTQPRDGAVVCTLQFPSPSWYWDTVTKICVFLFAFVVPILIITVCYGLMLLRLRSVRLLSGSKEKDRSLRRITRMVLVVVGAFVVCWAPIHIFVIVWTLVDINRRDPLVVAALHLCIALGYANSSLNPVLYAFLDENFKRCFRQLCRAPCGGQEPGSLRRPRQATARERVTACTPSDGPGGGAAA
Chain of UniProt P50391 (whole entry, looked up): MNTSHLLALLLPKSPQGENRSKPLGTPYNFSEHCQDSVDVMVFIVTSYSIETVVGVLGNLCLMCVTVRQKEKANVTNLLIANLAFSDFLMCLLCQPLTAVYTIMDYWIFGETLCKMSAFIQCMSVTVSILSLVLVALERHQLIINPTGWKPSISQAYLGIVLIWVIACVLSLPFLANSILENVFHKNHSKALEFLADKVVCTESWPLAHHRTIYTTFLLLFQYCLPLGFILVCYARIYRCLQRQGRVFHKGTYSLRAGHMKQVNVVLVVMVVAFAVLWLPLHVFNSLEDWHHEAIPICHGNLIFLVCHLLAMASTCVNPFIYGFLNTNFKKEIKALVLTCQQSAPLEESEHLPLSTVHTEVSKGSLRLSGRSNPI
Chain of UniProt Q15375 (whole entry, looked up): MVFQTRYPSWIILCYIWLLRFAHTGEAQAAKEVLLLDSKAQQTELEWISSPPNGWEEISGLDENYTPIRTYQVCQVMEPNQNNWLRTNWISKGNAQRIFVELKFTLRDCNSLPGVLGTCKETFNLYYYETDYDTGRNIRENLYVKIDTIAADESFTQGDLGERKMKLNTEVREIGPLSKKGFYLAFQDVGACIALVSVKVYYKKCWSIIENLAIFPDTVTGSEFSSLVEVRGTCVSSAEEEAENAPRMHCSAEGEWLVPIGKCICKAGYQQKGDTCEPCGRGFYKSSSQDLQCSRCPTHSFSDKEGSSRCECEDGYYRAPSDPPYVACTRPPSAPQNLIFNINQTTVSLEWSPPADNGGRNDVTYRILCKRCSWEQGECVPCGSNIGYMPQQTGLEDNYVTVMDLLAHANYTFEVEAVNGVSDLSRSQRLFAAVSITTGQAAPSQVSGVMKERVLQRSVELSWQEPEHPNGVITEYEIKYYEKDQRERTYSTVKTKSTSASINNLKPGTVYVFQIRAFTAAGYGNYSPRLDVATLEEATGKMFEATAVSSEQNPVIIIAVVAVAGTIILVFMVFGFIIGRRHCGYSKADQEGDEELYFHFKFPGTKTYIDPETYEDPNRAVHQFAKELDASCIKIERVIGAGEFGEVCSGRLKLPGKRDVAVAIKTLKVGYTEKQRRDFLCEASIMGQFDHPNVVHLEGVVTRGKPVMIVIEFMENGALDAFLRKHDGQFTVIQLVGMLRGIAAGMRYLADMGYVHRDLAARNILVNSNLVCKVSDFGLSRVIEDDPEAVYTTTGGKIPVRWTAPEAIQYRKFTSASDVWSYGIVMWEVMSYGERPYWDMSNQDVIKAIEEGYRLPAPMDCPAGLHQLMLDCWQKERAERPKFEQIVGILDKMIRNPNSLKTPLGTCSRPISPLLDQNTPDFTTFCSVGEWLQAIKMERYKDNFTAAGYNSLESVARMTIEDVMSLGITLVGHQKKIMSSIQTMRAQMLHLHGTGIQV
Chain of UniProt Q9NSD7 (whole entry, looked up): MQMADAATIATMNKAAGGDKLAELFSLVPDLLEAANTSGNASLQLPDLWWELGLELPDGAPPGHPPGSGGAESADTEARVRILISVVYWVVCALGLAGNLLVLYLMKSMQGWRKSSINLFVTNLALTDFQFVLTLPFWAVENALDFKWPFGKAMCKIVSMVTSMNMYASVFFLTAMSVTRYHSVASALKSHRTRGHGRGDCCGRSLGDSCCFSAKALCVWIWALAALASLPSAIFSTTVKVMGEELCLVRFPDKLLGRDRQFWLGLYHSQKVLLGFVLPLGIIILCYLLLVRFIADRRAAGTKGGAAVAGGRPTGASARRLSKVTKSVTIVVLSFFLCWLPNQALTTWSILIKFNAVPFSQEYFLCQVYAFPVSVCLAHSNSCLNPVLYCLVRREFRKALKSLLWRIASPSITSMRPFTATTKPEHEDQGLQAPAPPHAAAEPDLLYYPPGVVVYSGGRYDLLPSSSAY
Chain of UniProt P22303 (whole entry, looked up): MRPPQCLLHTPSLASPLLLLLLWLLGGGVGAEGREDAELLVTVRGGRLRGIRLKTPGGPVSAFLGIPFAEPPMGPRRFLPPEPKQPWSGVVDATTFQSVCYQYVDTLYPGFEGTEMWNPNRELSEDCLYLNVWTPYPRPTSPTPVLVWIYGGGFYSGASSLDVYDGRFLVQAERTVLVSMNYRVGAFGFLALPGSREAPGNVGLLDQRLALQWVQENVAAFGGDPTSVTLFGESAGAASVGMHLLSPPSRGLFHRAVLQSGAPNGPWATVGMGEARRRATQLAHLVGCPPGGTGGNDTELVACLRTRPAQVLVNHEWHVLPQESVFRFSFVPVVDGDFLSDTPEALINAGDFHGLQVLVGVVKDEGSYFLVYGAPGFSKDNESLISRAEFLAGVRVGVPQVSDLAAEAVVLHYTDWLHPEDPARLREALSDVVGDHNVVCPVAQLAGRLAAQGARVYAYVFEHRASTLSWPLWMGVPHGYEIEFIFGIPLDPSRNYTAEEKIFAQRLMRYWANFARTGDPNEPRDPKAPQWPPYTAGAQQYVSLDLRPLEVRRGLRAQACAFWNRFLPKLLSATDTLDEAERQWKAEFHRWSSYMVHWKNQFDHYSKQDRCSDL
Chain of UniProt P31153 (whole entry, looked up): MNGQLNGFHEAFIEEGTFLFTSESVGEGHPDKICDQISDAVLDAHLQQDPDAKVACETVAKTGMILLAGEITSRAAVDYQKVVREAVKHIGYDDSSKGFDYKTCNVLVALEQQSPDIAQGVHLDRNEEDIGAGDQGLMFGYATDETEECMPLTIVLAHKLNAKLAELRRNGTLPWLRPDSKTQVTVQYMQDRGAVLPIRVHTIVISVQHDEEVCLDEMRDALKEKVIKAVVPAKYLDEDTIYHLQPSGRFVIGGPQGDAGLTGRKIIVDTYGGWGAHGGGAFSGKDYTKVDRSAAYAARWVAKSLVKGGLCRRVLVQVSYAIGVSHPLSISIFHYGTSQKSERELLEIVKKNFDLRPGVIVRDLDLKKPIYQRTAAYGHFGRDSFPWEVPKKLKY
Chain of UniProt P50406 (whole entry, looked up): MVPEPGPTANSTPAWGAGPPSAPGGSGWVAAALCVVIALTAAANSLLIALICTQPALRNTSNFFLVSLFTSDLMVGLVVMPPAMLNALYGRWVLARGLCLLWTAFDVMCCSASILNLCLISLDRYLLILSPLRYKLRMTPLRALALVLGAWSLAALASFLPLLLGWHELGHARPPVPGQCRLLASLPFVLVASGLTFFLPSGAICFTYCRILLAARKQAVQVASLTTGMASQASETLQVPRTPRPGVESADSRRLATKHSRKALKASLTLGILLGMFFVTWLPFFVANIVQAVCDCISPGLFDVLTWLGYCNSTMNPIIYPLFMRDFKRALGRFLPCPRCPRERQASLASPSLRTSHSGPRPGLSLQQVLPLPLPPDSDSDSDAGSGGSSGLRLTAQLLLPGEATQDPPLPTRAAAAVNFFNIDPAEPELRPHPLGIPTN

NC(CCS)P(=O)(O)O (racemic) — Ki (PAL1 (Petroselinum crispum, UniProt P24481); enzyme activity, inhibitor, absorbance; pH 8.8): > 1000 µM
CN1CCN(c2ccc3cnn(Cc4cccc5ccccc45)c3c2)CC1 — Ki (5-hydroxytryptamine receptor 6 (HTR6, Homo sapiens, UniProt P50406); ligand displacement, radioligand; cell membranes): 0.051 µM
CC(=O)N[C@@H](CCCNC(=N)N)C(=O)N[C@H](Cc1ccc(O)cc1)C(=O)N[C@@H](CCCNC(=N)NC(=O)NCCCCN)C(=O)N[C@@H](CC(C)C)C(=O)N[C@@H](CCCNC(=N)N)C(=O)N[C@@H](Cc1ccc(O)cc1)C(N)=O — Ki (Neuropeptide Y receptor type 4 (NPY4R, Homo sapiens, UniProt P50391); ligand displacement, radioligand): 0.0104 µM
CCCCn1c2ccccc2c2cc(C(=O)c3cccc4ccccc34)ccc21 — Ki (Cannabinoid receptor 1 (CNR1, Homo sapiens, UniProt P21554); ligand displacement, radioligand; cell membranes): 0.0776 µM
COc1cc(C(=O)NCCOCCOCCOCCNC(=O)c2ccc([18F])nc2)ccc1NC(=O)C1NC(CC(C)(C)C)C(C#N)(c2ccc(Cl)cc2F)C1c1cccc(Cl)c1F (centres unmarked) — tracer uptake (HepG2 tumour model; host not given, tumour; 4 h, tumour-bearing): 0.98 %ID/g
COc1cc2c(cc1OC)C(=O)/C(=C\c1ccc(-n3ccnc3)cc1)C2 — Ki (Acetylcholinesterase (ACHE, Homo sapiens, UniProt P22303); enzyme activity, inhibitor): 14 µM
CNC(=O)C1CCN(c2ccccc2NC(=O)c2ccc(-c3cc(O)ccc3C)c(C)n2)CC1 — Ki (Ephrin type-A receptor 7 (EPHA7, Homo sapiens, UniProt Q15375); cell-free assay, TR-FRET): 0.029 µM
CN[C@](C)(C[18F])C(=O)O — tracer uptake (MDA-MB-468 tumour model; host not given, kidney; 15 min, tumour-bearing): 21 %ID/g
COC(=O)Cc1cn2c(n1)[C@H](NC(C)=O)[C@@H](O)[C@H](O)[C@H]2CO — Ki (human lysosomal hexosaminidase A/B): 0.00055 ± 5e-05 µM
CC(C)[C@@H]1NC(=O)[C@H](CCCNC(=N)N)NC(=O)[C@H](Cc2ccc(O)cc2)NC(=O)[C@H](CO)NC(=O)[C@H](Cc2ccc(O)cc2)N(C)C(=O)[C@H](CC(N)=O)NC(=O)CNC(=O)[C@H](Cc2ccc(O)cc2)N(C)C(=O)[C@H](Cc2ccccc2)N(C)C(=O)[C@H](CC(=O)O)NC(=O)[C@H](Cc2ccc(O)cc2)NC(=O)[C@H](Cc2ccccc2)N(C)C(=O)[C@H](Cc2ccc(O)cc2)N(C)C(=O)[C@H](Cc2ccc(O)cc2)NC(=O)CSC[C@@H](C(N)=O)NC(=O)[C@@H]2CCCN2C1=O — AC50 (ipgm-1; enzyme activity, inhibitor, luminescent coupled-enzyme ATP): 0.813 µM
Nc1ncnc2c1ncn2[C@@H]1O[C@H](COP(=O)(O)OP(=O)(O)NP(=O)(O)O)[C@@H](O)[C@H]1O — Ki (S-adenosylmethionine synthase isoform type-2 (MAT2A, Homo sapiens, UniProt P31153); enzyme activity, inhibitor): 8.6 µM
COc1ccc(C[C@H]2C(=O)N(C)[C@@H](Cc3ccc(O)cc3)C(=O)N(C)[C@@H](Cc3ccccc3)C(=O)N[C@@H](CC(N)=O)C(=O)NCC(=O)N(C)[C@@H](Cc3ccc(O)cc3)C(=O)N[C@@H](CC(N)=O)C(=O)N[C@@H](Cc3c[nH]cn3)C(=O)N[C@@H](Cc3ccc(O)cc3)C(=O)N[C@@H](Cc3c[nH]c4ccccc34)C(=O)N[C@H](C(N)=O)CSCC(=O)N[C@H](Cc3ccc(O)cc3)C(=O)N[C@@H](CC(=O)O)C(=O)N[C@@H](CO)C(=O)N[C@@H](Cc3ccc(O)cc3)C(=O)N[C@@H](C)C(=O)N2C)cc1 — AC50 (ipgm-1; enzyme activity, inhibitor, luminescent coupled-enzyme ATP): 0.0245 µM
CC[C@H](C)[C@@H]1NC(=O)[C@H](Cc2ccccc2)NC(=O)[C@H](CCC(=O)O)NC(=O)[C@H](CCCNC(=N)N)NC(=O)[C@](C)(NC(=O)[C@H](CS)NC(=O)[C@H](CC(C)C)NC(=O)[C@H](CCCNC(=N)N)NC(=O)[C@@H](NC(=O)CNC(=O)[C@H](Cc2ccc(O)cc2)NC(=O)[C@@H]2CCCN2C(=O)[C@H](C)NC(=O)[C@H](C)NC(=O)[C@@H](N)CCCNC(=N)N)C(C)C)CCCC=CCCCCCC[C@@](C)(C(=O)N[C@H](C(=O)N[C@@H](Cc2ccccc2)C(=O)N[C@H](C(=O)N[C@@H](CS)C(=O)NCC(=O)NCC(=O)N[C@@H](CO)C(=O)N[C@@H](CCCNC(=N)N)C(=O)N[C@@H](Cc2c[nH]c3ccccc23)C(=O)O)[C@@H](C)O)[C@@H](C)CC)NC(=O)[C@H](C)NC(=O)[C@H](CCCNC(=N)N)NC1=O — Ki (Relaxin-3 receptor 1 (RXFP3, Homo sapiens, UniProt Q9NSD7); ligand displacement): 0.331 µM
COc1ccc2ccc3c(c2c1)C=[N+]1C2CCCCC2[N+]2=Cc4cccc(OC)c4[O][Au-]21[O]3.F[P-](F)(F)(F)(F)F (centres unmarked) — Ki (Klebsiella pneumoniae glutathione reductase; competitive inhibitor; carbapenem-resistant; with: GSSG): 1.5 µM
C[C@@](O)(C(F)F)[C@H](NC(=O)c1ccc(C#CC#CC2CC2)cc1)C(=O)NO — AUC(0-inf) (dog, plasma; oral, 50 mg/kg): 19400 ng·h/mL
Cc1cc(O)cc(C)c1CC(N)C(=O)NC1CCNc2c(CN3CCCCC3)cc(Cc3ccccc3)cc21 (centres unmarked) — Ki (Delta-type opioid receptor (Oprd1, Rattus norvegicus, UniProt P33533); ligand displacement, radioligand; cell membranes): 0.0044 µM
CC(C)CN(C[C@@H](O)[C@H](Cc1ccccc1)NC(=O)O[C@H]1CO[C@H]2OCC(F)(F)[C@H]21)S(=O)(=O)c1ccc(N)cc1 — Ki (Gag-Pol polyprotein, protease (Human immunodeficiency virus type 1 group M subtype B, UniProt P03367, C567A/C595A/L533I/L563I/L576V/Q507K); protease activity, inhibitor): 0.0019 ± 0.0007 µM

Repeated from above:
COC(=O)Cc1cn2c(n1)[C@H](NC(C)=O)[C@@H](O)[C@H](O)[C@H]2CO — Ki (human lysosomal hexosaminidase A/B): 0.00055 ± 5e-05 µM
CC(C)[C@@H]1NC(=O)[C@H](CCCNC(=N)N)NC(=O)[C@H](Cc2ccc(O)cc2)NC(=O)[C@H](CO)NC(=O)[C@H](Cc2ccc(O)cc2)N(C)C(=O)[C@H](CC(N)=O)NC(=O)CNC(=O)[C@H](Cc2ccc(O)cc2)N(C)C(=O)[C@H](Cc2ccccc2)N(C)C(=O)[C@H](CC(=O)O)NC(=O)[C@H](Cc2ccc(O)cc2)NC(=O)[C@H](Cc2ccccc2)N(C)C(=O)[C@H](Cc2ccc(O)cc2)N(C)C(=O)[C@H](Cc2ccc(O)cc2)NC(=O)CSC[C@@H](C(N)=O)NC(=O)[C@@H]2CCCN2C1=O — AC50 (ipgm-1; enzyme activity, inhibitor, luminescent coupled-enzyme ATP): 0.813 µM
